# Experimental data from different studies.
# Each numbered part is a random draw from the data of one study; scales do not carry over between parts. Positions count from the first letter of the parent shown.

# Block 1 — method: universal PBM; form: double-stranded DNA, one strand shown; sample: in vitro; tested at: 600 nM; reading: higher = stronger binding
# Target: Sal-like protein 4, full length isoform A (SALL4, Homo sapiens, UniProt Q9UJQ4, residues 1-1053)
# Sequence of UniProt Q9UJQ4 (whole entry, looked up): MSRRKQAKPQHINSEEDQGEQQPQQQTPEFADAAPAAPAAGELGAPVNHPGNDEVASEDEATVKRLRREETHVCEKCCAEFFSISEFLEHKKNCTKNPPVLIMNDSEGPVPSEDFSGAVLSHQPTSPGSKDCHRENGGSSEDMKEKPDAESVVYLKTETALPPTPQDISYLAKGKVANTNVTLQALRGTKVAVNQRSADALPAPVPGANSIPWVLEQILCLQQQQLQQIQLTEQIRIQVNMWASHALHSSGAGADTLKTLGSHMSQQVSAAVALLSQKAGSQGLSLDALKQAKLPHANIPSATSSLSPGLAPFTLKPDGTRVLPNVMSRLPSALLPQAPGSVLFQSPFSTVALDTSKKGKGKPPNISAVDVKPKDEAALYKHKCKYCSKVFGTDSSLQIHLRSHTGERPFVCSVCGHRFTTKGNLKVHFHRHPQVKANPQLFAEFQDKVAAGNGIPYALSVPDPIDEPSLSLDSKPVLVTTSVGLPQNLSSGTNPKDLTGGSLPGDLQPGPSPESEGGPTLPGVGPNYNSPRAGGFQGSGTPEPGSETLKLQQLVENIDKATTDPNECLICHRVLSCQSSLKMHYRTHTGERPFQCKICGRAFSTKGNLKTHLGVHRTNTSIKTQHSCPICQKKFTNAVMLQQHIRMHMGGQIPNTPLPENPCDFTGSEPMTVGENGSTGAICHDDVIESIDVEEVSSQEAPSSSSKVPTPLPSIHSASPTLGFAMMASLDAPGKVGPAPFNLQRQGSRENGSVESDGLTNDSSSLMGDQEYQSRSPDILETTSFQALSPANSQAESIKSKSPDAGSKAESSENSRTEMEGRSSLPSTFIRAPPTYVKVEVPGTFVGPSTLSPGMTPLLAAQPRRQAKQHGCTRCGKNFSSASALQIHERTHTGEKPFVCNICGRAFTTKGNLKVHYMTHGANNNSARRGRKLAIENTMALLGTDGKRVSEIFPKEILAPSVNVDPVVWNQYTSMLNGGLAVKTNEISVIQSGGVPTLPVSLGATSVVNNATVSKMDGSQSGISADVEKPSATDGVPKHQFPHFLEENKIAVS
# Setting: 8-mer, flanks averaged, mean of replicates
Sequence,E-score
GGCTGTGA,-0.177
AGAAAGGG,0.0342
CAGTAATG,0.165
GTGTAACA,0.115
ATGGGGCC,-0.415
ACCAACGT,-0.0108

# Block 2 — method: protein binding microarray; form: double-stranded DNA, one strand shown; sample: in vitro; tested at: not given; baseline: not given; reading: higher = stronger binding
# Target: Histone acetyltransferase KAT6A, winged helix 2, GST fusion (KAT6A, Homo sapiens, UniProt Q92794, residues 85-181)
# Setting: 8-mer, flanks averaged, mean of 2 arrays, mostly near background
# Residues (chain): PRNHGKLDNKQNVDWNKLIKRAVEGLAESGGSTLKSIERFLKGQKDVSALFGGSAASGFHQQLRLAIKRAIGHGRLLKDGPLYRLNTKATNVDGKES
Sequence,E-score
GAGAGATC,0.0217
GACTGGCC,-0.0425
AGTATCCA,0.022
CCAAGACC,-0.0318
CGAGGATA,0.00457
GAAACGTC,-0.138
GCCTGTGA,-0.14

# Block 3 — method: DHFR PCA, deep sequencing; sample: yeast; added: (+)-ABA 58 µM; baseline: wild-type fitted maximum; reading: higher = stronger binding
# Target: ABI1, truncated, D143A, DHFR fusion (Arabidopsis thaliana)
# Setting: methotrexate growth selection, single substitutions
# Starting sequence: PYL1, truncated, DHFR fusion (Arabidopsis thaliana); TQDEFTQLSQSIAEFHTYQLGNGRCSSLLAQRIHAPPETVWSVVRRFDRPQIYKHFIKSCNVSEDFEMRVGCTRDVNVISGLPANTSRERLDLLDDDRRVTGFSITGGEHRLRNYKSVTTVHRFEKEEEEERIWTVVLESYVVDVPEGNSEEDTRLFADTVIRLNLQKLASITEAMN; partner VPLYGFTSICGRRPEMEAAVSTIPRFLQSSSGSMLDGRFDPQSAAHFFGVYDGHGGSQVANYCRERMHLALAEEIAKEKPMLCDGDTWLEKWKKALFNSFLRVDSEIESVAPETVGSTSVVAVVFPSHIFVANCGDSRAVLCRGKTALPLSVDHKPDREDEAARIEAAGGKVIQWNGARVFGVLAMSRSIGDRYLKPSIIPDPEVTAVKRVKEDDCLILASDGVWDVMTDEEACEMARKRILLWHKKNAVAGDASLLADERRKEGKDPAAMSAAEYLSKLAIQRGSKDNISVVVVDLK
Substitution,relative binding score
V145E,5.16%
S11R,71.3%
N177H,87.1%
S27T,42.1%
N61G,75.4%

# Other studies, line by line
Substance,target,assay,test system,conditions,how to read,endpoint,value
"PhoQ, residues 284 288 289 292 302 303 AGCYAI","PhoP, residues 12 14 15 18 19 QYCSL (Escherichia coli, UniProt P23836)","Sort-seq, refers to: YFP reporter",E. coli,"PhoQ-PhoP variant library, added: 10 µM Mg2+","baseline: high Mg2+ state, higher = stronger signaling",fold induction,1.55

# Some of these lines once more (other studies, line by line):
Substance,target,assay,test system,conditions,how to read,endpoint,value
"PhoQ, residues 284 288 289 292 302 303 AGCYAI","PhoP, residues 12 14 15 18 19 QYCSL (Escherichia coli, UniProt P23836)","Sort-seq, refers to: YFP reporter",E. coli,"PhoQ-PhoP variant library, added: 10 µM Mg2+","baseline: high Mg2+ state, higher = stronger signaling",fold induction,1.55
